# Results pooled from the literature.
# Each numbered part is a random draw from the data of one study; scales do not carry over between parts. Substitutions count along the parent as printed.

# Set 1
# Target: ABI1, truncated, D143A, DHFR fusion (Arabidopsis thaliana)
# Method: DHFR PCA, deep sequencing
# Sample: yeast
# Notes: methotrexate growth selection, single substitutions
# Added: (+)-ABA 17 µM
# Reference: wild-type fitted maximum
# Direction: higher = stronger binding
# Starting sequence: PYL1, truncated, DHFR fusion (Arabidopsis thaliana); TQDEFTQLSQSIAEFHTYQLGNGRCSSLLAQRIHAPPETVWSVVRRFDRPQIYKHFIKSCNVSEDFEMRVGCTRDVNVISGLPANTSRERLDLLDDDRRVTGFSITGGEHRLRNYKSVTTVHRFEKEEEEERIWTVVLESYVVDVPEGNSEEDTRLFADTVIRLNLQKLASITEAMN
Substitution,relative binding score
V137Y,4.84%
F103K,-23.4%
S9T,79.6%
G23L,49.7%
T73W,71.4%
T119A,14%
C25W,-8.18%
G81W,-4.49%
E130Y,69.7%
P36E,74.7%

# Set 2
# Target: CCNA2, cyclin fold, Cln2 fusion (human)
# Method: yeast growth competition, sequencing
# Sample: yeast
# Notes: weak parent motif
# Reference: not given
# Direction: higher = stronger binding
# Starting sequence: MASTL docking peptide (human); PMIAKNLMCELDE
Substitution,normalised enrichment score
PMIAMNLMCELDE [K5M],-0.313
PMIAKNLTCELDE [M8T],-0.37
PMIAKNLMCILDE [E10I],0.154
PMIAKNLMLELDE [C9L],-0.143
PMIAKFLMCELDE [N6F],-0.222
PMIAKNRMCELDE [L7R],0.155
PMIAKNLMCELSE [D12S],0.206
PMPAKNLMCELDE [I3P],-0.277
PIIAKNLMCELDE [M2I],-0.162

# Set 3
# Target: Histone acetyltransferase KAT6A, winged helix 1, GST fusion (KAT6A, Homo sapiens, UniProt Q92794, residues 1-85)
# Method: protein binding microarray
# Molecule type: double-stranded DNA, one strand shown
# Sample: in vitro
# Concentration: not given
# Notes: 8-mer, flanks averaged, mean of 2 arrays, mostly near background
# Reference: not given
# Direction: higher = stronger binding
# Target sequence (chain): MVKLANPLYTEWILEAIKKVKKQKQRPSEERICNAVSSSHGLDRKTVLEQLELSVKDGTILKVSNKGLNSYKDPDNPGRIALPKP
Oligonucleotide,E-score
ACTAGTCC,0.0649
AAGCTGAT,-0.0672
CAGTGCTA,-0.126
GTCATTGA,-0.227
CGGTCCAG,0.0759
GTTTTCTA,-0.0663
ATGTTGAC,0.0245
GAGCAAGA,-0.184
AGTTAGAG,-0.099

# Further values, each from its own experiment
Substance,target,test,system,setting,scale,endpoint,value
"PhoQ, residues 284 288 289 292 302 303 NLGVHL","PhoP, residues 12 14 15 18 19 NQGLL (Escherichia coli, UniProt P23836)","Sort-seq, item: YFP reporter",E. coli,"PhoQ-PhoP variant library, added: 10 µM Mg2+","reference: high Mg2+ state, higher = stronger signaling",fold induction,4.27

# A few entries again (set 1):
Substitution,relative binding score
G23L,49.7%
T73W,71.4%
T119A,14%
C25W,-8.18%
